Published values gathered from unrelated publications.
A part holds a random share of what one study measured.

Sample 1
Target: RNA binding protein fox-1 homolog 2, RRM domain, GST-SBP tag (RBFOX2, Homo sapiens, UniProt O43251-10, residues 100-194)
Method: RNA Bind-n-Seq
Molecule type: RNA
Matrix: in vitro
Concentration: 365 nM
Notes: natural RNA segment, single round, ends assumed
Baseline: no-protein control
Reading: higher = stronger binding
Measurement: RBNS enrichment (R)
Shared flanks, not repeated: GGGAGUUCUACAGUCCGACGAUC … UGGAAUUCUCGGGUGCCAA
Target sequence (chain): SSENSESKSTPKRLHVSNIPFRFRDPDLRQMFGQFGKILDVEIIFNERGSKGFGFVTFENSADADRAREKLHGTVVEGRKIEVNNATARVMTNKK
AAGCCACAAGCCUGAACGAGCCUAAAAGCAUGGCGAGUUGGUGGAACCAGCGCCCCAUAGGCUAAGAUCUAUCAUUUACAGGUAGAAGUGGGGCCCGCACUCAGAACUGU: 0.538
GCGUUUGGCAUUUGUGUUGAGCUUAGGGGAGCAUUGGCAUGGAGAAACUCCACGCUGGCGAAGUCCCGGGCUGGGCUUUCUCCUCCUCCCCCCACCUUUUUUCCCCUUGU: 0.269
UCCUAAGGCUCCCUCCCAGGCAAGUGCCCACCAGCAAGUUCACCACAGAGCCUGAAGCCCACACUCCGGAAAUGUCUCCUUCCAGAGAAAUGUUGGAGCCGAUCCAGGGU: 0.636
GGAGAACCUCUAGCACAGGCGGGCCCAGACCGGCUUCUCGGCUUGGAUCCUGGGCUGGGUGGCCCCUGUCUCGGGGCUUGCCCCACUCUGCCUGCCUGCUGUUGGUCCUC: 0.285
ACAGGGAAAUUUUGGGGUGGGAGUAAAAGCAAAUUUGGAAAAUAAACUUUUUUUUGUUGAAUCUUUUCUGAUCUGGAUUUUCCAUUCUUGCUAUGGCUGCCUCUUGUAAC: 0.805
CUGAAAUCAAGCAGGAGAUUGAGAGCCACUGACUGCACCCCAGCUUUCCGUCUGCGACCUCACUCACAGGACUUGAGUAUUUCCGACCUCACGGGUCACCCCAGCCCUCU: 0.38
CUAUAUUGUAUAAUAUUUAAAGUUAUUUUUAAUUUUCUCAAACAAUAUGAGAAUAUCUAUCUGGCAUUAUCUAUCUGCCAAUCUCACUGUAAUAAAUUGAUUAUUUUGCC: 1.7
GAGGCACUUCCUUGGGGUCUUUCUCUAGGGUCUCUUCUCUACAAAGCACAACACUAAUGUUCGUUUCCUUAGACCUCAGUUCAAGUGCCCCUAUUUAUUUCAAUAAGAAC: 0.385

Sample 2
Target: Histone acetyltransferase KAT6A, both winged helices, GST fusion (KAT6A, Homo sapiens, UniProt Q92794, residues 1-181)
Method: protein binding microarray
Molecule type: double-stranded DNA, one strand shown
Matrix: in vitro
Concentration: not given
Notes: 8-mer, flanks averaged, mean of 2 arrays, mostly near background
Baseline: not given
Reading: higher = stronger binding
Measurement: E-score
Target sequence (chain): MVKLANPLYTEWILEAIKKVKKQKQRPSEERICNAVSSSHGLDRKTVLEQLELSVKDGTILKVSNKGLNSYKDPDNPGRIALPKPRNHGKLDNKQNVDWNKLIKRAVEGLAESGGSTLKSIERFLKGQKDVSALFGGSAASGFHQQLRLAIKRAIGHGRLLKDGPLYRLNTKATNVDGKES
ACATGTGG: -0.027
ACTGGAAA: -0.144
CCATCGGA: -0.00757
GTTGATCA: 0.0683
CATAGGAC: -0.0791
ACCAGAAG: -0.248
AACACGAG: -0.1
CGACCATA: 0.0369
ATCTGATA: -0.0725
CGCCCTCA: -0.0873
CGCTACTC: 0.228
ACATGAGA: -0.00575
AGCATTCG: -0.121
AAAACAAA: -0.0776
ATTCTTCA: -0.0762
AAGATCCC: -0.0315

Sample 3
Target: Interferon regulatory factor 3, full length, phosphomimetic (IRF3, Homo sapiens, UniProt Q14653, residues 1-427, S386D/S396D/S398D/S402D/T404D/S405D)
Method: protein-binding microarray
Molecule type: double-stranded DNA, one strand shown
Matrix: in vitro
Concentration: 2540 nM top
Notes: 60-bp whole probe
Together with: salmon DNA 0.4 mg/ml
Baseline: random background probes
Reading: higher = stronger binding
Measurement: fitted relative affinity
Shared flanks, not repeated: GCCTAGCAC … GTCTTGATTCGCTTGACGCTGCTG
Construct (chain): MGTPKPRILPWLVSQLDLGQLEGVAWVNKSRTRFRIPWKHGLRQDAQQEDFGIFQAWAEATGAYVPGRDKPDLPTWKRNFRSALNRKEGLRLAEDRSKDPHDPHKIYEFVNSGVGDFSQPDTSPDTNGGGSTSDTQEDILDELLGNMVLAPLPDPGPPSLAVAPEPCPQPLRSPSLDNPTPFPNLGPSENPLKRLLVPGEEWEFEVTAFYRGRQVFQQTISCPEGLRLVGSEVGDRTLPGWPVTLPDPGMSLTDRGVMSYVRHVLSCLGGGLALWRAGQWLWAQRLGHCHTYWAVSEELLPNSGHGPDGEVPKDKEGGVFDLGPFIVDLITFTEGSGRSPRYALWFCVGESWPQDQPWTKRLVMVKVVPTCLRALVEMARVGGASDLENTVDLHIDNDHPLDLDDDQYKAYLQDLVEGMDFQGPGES
GATTGGCTGACTTTGGAGATGTGCTAG: -0.554 z-score
CATTTTCTTTAACTCATTCTGTGCTAG: 3.7 z-score
GTCGATTTCGGGTTTCGAGACGTGCTA: 3.91 z-score
TCAGATTTCAGTATCGATTAGTGCTAG: 2.97 z-score
GACGATATCAGTATCGCGACGTGCTAG: 0.938 z-score
AGTTTTCTCATTCGTCATTTCGTGCTA: 2.4 z-score
TTAGGACTGCTTTACCTTTAGTGCTAG: 0.165 z-score
TTAGAACTGGGGACTGGCTTAGTGCTA: -1.08 z-score
TAAGATATCAGTATCGATTAGTGCTAG: 1.84 z-score
TTAGGACTGCGGTATCGGTTAGTGCTA: 1.1 z-score
GACGGTCTCCTATTGCTGACGTGCTAG: 1.69 z-score
GACGATTTCAGTATCGAGTCGTGCTAG: 2.57 z-score

Sample 4
Target: Sal-like protein 4, full length isoform A (SALL4, Homo sapiens, UniProt Q9UJQ4, residues 1-1053)
UniProt Q9UJQ4, sequence (whole entry, looked up): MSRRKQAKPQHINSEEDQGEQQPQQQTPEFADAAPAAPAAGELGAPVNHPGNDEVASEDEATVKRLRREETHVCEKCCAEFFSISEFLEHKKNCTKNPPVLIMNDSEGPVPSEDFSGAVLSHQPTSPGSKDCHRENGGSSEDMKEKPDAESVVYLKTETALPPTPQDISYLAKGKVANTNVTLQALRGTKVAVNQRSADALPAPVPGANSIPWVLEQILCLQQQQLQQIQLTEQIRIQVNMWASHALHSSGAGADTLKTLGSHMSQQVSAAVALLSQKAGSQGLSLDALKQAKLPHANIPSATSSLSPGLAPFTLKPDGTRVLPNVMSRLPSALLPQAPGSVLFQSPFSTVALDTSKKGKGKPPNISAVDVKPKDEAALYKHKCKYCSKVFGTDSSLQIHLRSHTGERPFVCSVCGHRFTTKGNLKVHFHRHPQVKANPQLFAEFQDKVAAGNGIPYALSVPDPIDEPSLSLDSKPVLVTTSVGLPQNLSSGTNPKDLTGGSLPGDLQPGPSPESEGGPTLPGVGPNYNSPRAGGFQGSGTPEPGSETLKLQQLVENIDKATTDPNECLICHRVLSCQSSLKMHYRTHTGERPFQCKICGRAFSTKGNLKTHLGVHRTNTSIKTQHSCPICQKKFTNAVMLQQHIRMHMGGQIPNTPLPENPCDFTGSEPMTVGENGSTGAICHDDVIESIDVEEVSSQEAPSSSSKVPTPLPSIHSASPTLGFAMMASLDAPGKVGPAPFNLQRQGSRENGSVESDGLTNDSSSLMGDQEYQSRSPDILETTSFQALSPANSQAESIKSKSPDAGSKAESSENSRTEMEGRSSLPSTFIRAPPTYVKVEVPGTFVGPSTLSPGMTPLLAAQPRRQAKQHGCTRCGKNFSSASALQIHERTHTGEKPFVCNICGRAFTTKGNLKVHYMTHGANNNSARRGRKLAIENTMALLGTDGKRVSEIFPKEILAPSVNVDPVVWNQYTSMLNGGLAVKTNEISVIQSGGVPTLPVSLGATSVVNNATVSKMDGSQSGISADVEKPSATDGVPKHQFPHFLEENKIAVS
Method: universal PBM
Molecule type: double-stranded DNA, one strand shown
Matrix: in vitro
Concentration: 600 nM
Notes: 8-mer, flanks averaged, mean of replicates
Reading: higher = stronger binding
Measurement: E-score
GAAATGAA: 0.266
AAGACGTA: 0.169
CCCTGTCA: -0.112
CTCTCAAG: 0.00094
ACACGAAA: 0.1
CGGATAGA: 0.0425
AGGTTCAT: 0.0266
TACAAGAA: 0.258
AATAAATA: 0.431
ATGATGGC: -0.0808
ATCGCGAT: 0.1
CTTTGCAC: 0.112
ACAATAAC: 0.351
CATACTCG: -0.0211

Sample 5
Target: RING finger protein unkempt homolog, zinc fingers 1-6, GST-SBP tag (UNK, Homo sapiens, UniProt Q9C0B0, residues 30-357)
Method: RNA Bind-n-Seq
Molecule type: RNA
Matrix: in vitro
Concentration: not given
Notes: RNA with constant flanks, human and mouse sites, ends assumed
Baseline: input RNA pool
Reading: higher = stronger binding
Measurement: bound/input enrichment
Shared flanks, not repeated: GGGAGUUCUACAGUCCGACGAUC … CAACAGAGGAUUGAGCAUCA
Construct (chain): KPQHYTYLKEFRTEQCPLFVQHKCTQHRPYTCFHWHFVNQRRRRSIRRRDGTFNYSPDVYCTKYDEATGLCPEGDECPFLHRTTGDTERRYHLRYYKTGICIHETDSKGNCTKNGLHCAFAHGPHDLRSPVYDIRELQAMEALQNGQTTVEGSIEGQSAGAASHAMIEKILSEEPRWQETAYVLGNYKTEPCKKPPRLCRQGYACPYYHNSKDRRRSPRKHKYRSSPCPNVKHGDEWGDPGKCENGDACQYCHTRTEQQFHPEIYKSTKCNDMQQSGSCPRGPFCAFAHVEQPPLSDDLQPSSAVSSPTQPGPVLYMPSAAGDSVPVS
UGUGAAACCCAGAAAUGGACUGUGAAUGGACAGCUGAGGGUUGGAUUUUUUACCACCAAACUAGUUCCUUCAGGCUCAGAAUUAACUUUUGACUACCAGUUCCAAAGAUAUGGCAAAGAA: 0.34 ratio
UUCAAUGACUCUCAGCGACAGGCAACAAAAGAUGCUGGAACUAUUGCUGGCCUCAAUGUACUUCGAAUCAUCAAUGAACCAACUGCUGCUGCUAUUGCUUACGGCUUAGAUAAGAAGGUC: 0.227 ratio
CAGGAGCAGGGGCCCUGGCCUCCAUUCCCAUGUGUUGACUCACAACUGUUUGUAAUUCCAGUUCCAGGGUAUCUGACAUCCUCCUCUGGUCUCCUCACGCAUAUGUGUGGUACACAAACA: 0.166 ratio
ACGAAGAGCGCGCGGGUCAAAGGCCUUAGUUUUCAUCCUAAAAGACCCUGGAUCCUGACCAGUUUACACAAUGGGGUCAUCCAGUUAUGGGACUAUCGGAUGUGCACCCUAAUUGACAAA: 0.273 ratio
AAACAUUUUGAUGGUGAAGAUUACACAUGCAUAACAUUCCAACCAGAUCUGUCCAAAUUUAAGAUGGAAAAACUUGACAAGGAUAUUGUGGCCCUCAUGACUAGAAGGGCAUAUGAUUUG: 0.19 ratio
GCCUUUUUUGCCCAUUGCCCAGGGAUCAAGGUGGUAAUACCCCGAAGCCCUUUCCAGGCCAAGGGACUUCUGUUGUCAUGCAUAGAAGAUAAAAAUCCAUGUAUAUUUUUUGAACCUAAA: 0.221 ratio
CAUAAUUAUGGUGCUCGUCCUCCUCCAACACCUCCAGCAUCCCCUCCUCCAUCAGGUCUCAUUAGCAAAAACGAAGUAGGCAUAUUUACCACUCCUAAUUUUGAUGAAACUUCCAGUGCU: 2.59 ratio
UUCAGGAAGGGCCGAGAAGACAGAGCUCCACUCCUGAAGACCUUCAGCUUCUUGGGCUUUGAGAUUGUACGUCCAGGCCAUCCCUGUGUCCCCUCUCGGCCAGAUGUGAUGUUCAUGGUU: 0.111 ratio
GCUAUUCGGGAUGCAUGCUUUGGAAUGUCAGCGAUACAGAUGUUCAAUUUGGAUCGGGCUAAUGUUGAAGAAUUCUAUGAAGUCUAUAAAGGUGUAGUGUCUGAGUAUAAUGAUAUGGUG: 0.836 ratio
CAAAGAGUGAACAAACAAGUUGGAGAUAUCUUCAGUAAUCCAGAAACAGUCCUGGCUAAACUUAUUCAAAAUGUAUUUGAAAUCAAACUACAGAGUUUUGUGAAAGAGCAGUUAGAAGAA: 0.173 ratio
AGUGAAGUCCAGGCAAACCUUUCUCUGUUCCUAGAGGCAGCUAGCGGCUUCUAUACUCAGUUAUUACAGGAACUGUGUACGGUGUUUAAUGUAGAUUUGCCAUGCCGUGUGAAGUCUUCC: 0.0818 ratio

Sample 6
Target: Ras GTPase-activating protein-binding protein 1, C-terminal RGG region (G3BP1, Homo sapiens, UniProt Q13283)
UniProt Q13283, sequence (whole entry, looked up): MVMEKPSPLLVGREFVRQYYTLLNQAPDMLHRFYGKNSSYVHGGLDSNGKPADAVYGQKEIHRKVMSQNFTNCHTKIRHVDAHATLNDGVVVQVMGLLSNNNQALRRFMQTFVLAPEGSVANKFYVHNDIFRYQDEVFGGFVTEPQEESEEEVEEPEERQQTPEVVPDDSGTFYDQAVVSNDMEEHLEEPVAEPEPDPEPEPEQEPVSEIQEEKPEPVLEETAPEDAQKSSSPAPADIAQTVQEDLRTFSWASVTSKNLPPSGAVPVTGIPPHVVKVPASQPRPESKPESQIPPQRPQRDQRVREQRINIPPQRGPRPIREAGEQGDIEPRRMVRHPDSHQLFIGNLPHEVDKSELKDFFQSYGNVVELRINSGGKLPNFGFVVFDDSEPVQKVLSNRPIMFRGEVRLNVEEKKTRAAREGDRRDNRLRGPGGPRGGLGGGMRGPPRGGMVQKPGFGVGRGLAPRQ
Method: RNA Bind-n-Seq
Molecule type: RNA
Matrix: in vitro
Concentration: 1 µM
Notes: whole 134-nt RNA, ends assumed
Together with: 150 mM KCl
Baseline: input library
Reading: higher = stronger binding
Measurement: log2 enrichment
Shared flanks, not repeated: GGGAGUUCUACAGUCCGACGAUC … UGGAAUUCUCGGGUGUCAAGG
CUGUGCUACACAUCGUAUGUACCGAAUCGGGUUUUUUUGGGGUUUUUUUGGGUUUUUUUGGGAAAGUAUUAUGUUACGCCGUUCGGAUCU: -0.987
AAUGCCCACAAGGUCCCUCCCCCAUGGCUGAUUGCCAUGCAGCGAUAUGGACCACCCCCAUCGUAUCCCAACCUGAAAAUCCCUGGGCUG: -0.462
CUGUGCUACACAUCGUAUGUACCGAAUCGUGUGUGUGUGUGUGUGUGUGUGUGUGUGUGUGUAAAGUAUUAUGUUACGCCGUUCGGAUCU: 1.56
GUCCUGUGCUACACAUCGUAUGUACCGAAUCGGGGAAAGGGGUGGGGUUUUUUUGGGGAAAGUAUUAUGUUACGCCGUUCGGAUCUGCAC: 1.84
CCUGUGCUACACAUCGUAUGUACCGAAUCGGGGCCCCCCGGGCCCCCCGGGCCCCCCGGGAAAGUAUUAUGUUACGCCGUUCGGAUCUGC: -1.79
UAACUUUAGAGGAGGAUCUGAUGGAUAUGGCAGUGGACGUGGGUUUGGGGAUGGCUAUAAUGGGUAUGGAGGAGGACCUGGAGGUGGCAA: -0.687
UGGGAGGUGGAUUUUGUUUAUUUUUUUAGCUCAUUUCCAGGGGUGGGAAUUUUUUUUUAAUAUGUGUCAUGAAUAAAGUUGUUUUAGAAA: 2.3
CCUGUGCUACACAUCGUAUGUACCGAAUCGGGGUGGGGAAAAAAAGGGGUUUUUUUGGGGAAAGUAUUAUGUUACGCCGUUCGGAUCUGC: 0.491
UCCUGUGCUACACAUCGUAUGUACCGAAUCGGUUUUUUGGGGUUUUUUGGUUUUUUGGGGAAAGUAUUAUGUUACGCCGUUCGGAUCUGC: -1.03

For quick reference, copied from above (sample 5):
CAUAAUUAUGGUGCUCGUCCUCCUCCAACACCUCCAGCAUCCCCUCCUCCAUCAGGUCUCAUUAGCAAAAACGAAGUAGGCAUAUUUACCACUCCUAAUUUUGAUGAAACUUCCAGUGCU: 2.59 ratio
AGUGAAGUCCAGGCAAACCUUUCUCUGUUCCUAGAGGCAGCUAGCGGCUUCUAUACUCAGUUAUUACAGGAACUGUGUACGGUGUUUAAUGUAGAUUUGCCAUGCCGUGUGAAGUCUUCC: 0.0818 ratio
UUCAAUGACUCUCAGCGACAGGCAACAAAAGAUGCUGGAACUAUUGCUGGCCUCAAUGUACUUCGAAUCAUCAAUGAACCAACUGCUGCUGCUAUUGCUUACGGCUUAGAUAAGAAGGUC: 0.227 ratio
CAAAGAGUGAACAAACAAGUUGGAGAUAUCUUCAGUAAUCCAGAAACAGUCCUGGCUAAACUUAUUCAAAAUGUAUUUGAAAUCAAACUACAGAGUUUUGUGAAAGAGCAGUUAGAAGAA: 0.173 ratio
ACGAAGAGCGCGCGGGUCAAAGGCCUUAGUUUUCAUCCUAAAAGACCCUGGAUCCUGACCAGUUUACACAAUGGGGUCAUCCAGUUAUGGGACUAUCGGAUGUGCACCCUAAUUGACAAA: 0.273 ratio
